Results pooled from the literature.
Numbered parts are unrelated; each lists some results of a single study. Positions count from the first letter of the parent shown.

Series 1
Target: ABI1, truncated, D143A, DHFR fusion (Arabidopsis thaliana)
Method: DHFR PCA, deep sequencing
Matrix: yeast
Notes: methotrexate growth selection, single substitutions
Added: (+)-ABA 4.8 µM
Baseline: wild-type fitted maximum
Direction: higher = stronger binding
Measurement: relative binding score
Parent: PYL1, truncated, DHFR fusion (Arabidopsis thaliana); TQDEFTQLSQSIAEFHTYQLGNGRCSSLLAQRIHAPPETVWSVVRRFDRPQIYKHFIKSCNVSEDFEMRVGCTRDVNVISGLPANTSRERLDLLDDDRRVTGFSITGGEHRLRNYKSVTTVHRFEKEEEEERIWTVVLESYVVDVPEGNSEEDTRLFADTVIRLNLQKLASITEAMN; partner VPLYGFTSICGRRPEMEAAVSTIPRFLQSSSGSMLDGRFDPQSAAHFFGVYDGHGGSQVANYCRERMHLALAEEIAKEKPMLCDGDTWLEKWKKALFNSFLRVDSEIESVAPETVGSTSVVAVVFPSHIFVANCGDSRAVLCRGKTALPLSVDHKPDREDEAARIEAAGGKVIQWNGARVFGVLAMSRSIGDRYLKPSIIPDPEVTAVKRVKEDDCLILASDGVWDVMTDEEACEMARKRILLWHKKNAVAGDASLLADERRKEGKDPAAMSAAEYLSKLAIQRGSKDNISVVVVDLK
Change = M68E; result = 15.6%
Change = P37I; result = 46.9%
Change = Y141G; result = -3.44%
Change = E64N; result = 71.3%

Series 2
Target: RNA binding protein fox-1 homolog 2, RRM domain, GST-SBP tag (RBFOX2, Homo sapiens, UniProt O43251-10, residues 100-194)
Method: RNA Bind-n-Seq
Form: RNA
Matrix: in vitro
Concentration: 365 nM
Notes: natural RNA segment, single round, ends assumed
Baseline: no-protein control
Direction: higher = stronger binding
Measurement: RBNS enrichment (R)
Residues (chain): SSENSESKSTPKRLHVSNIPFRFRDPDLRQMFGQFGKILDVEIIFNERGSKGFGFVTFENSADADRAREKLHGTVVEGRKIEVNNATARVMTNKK
Sequence = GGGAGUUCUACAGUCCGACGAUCGGUCCUCUGGAGAACUCUUCGUGAGCACUGGUGCCGUGACCCACUUGGGAUCUCUGCUGUGCCCUUCUCGGGCUUCCAGACCAGGUGUAGCAAAUGAAAAAGUGCAGUUAUGGAAUUCUCGGGUGCCAA; result = 0.229
Sequence = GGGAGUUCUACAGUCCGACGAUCCGGUCACGUGGGCCUGGUCUUUUGUGUGUGAGGCCCUUGACCGUGUGGCCUCUGCCUGGCUGUUUGGGGUCCUGCACGGCUUUCCCACCACCUGUAGCUCUUGUUGACCUUGGAAUUCUCGGGUGCCAA; result = 0.892
Sequence = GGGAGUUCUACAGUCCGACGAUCUGAGGCCUCAGGACCACGGCAUGAUUUCAUGACUCCGAAGUAUUUUACAGAAACAUUUUUUAAAUAAGGGAAAUAUUUUAUAUACCAGAUGGUUCACAAGUGAUGGCUCAUGGAAUUCUCGGGUGCCAA; result = 0.713
Sequence = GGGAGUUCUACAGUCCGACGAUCCCCUGUUUCCCCUUCUGCCUCCGUUUCCCCAGCAGGACCACACUGCCUGUGGGACAAAGGACAGGAUGUAUGAAUUUAGGCCAAAGGUCCUAUGGUCCAUUUGCAGGGUUUGGAAUUCUCGGGUGCCAA; result = 0.478
Sequence = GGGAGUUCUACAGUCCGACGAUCCCUUAGACUGAUGCUUUGACUGAAUCAUCACUAGCUAUGGCAUUAAAAGGCCUCUCUUCUCAUCUGGUGCCAAAGGUUCCGUUGCAGCUUUUUACAACCAUCCGGUGUGGUGGAAUUCUCGGGUGCCAA; result = 0.349
Sequence = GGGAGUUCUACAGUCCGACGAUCUAUGGGCCAAACAAAGGCCAUGGAUAACCCUACCCGCUUUAUGUCAUUACCCAUUGGGAAACACAAUGGCUACUUCUGUUAGGGUACAUUGACCUUGGUCAAGCAUCUUAUGGAAUUCUCGGGUGCCAA; result = 0.268
Sequence = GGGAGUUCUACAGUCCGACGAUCGGCUUGAGUGUGUGAAUAUGAUGUGUGCACAUGCUUAAUGAGCGUGCAAGUGUGCACACGUUUGUGGAGAGGAGGGUGUUCUGGCCUGAGAAGGUAAAGAAGAGGCAUGUUGGAAUUCUCGGGUGCCAA; result = 6.21
Sequence = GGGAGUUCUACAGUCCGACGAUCUUUACCGCCUUUUGAGGAACACAAAUCGGAGAACAAACCCAGGGUUCAGGCGUGUUUUCUGUGAAUGUUGGAUGAUGAAUUUUUGUCUCUUCUGGUGGAGCUGUGCCUGGUGGAAUUCUCGGGUGCCAA; result = 0.737
Sequence = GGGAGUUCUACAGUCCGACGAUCUUUGGAGUGGAGCAGGCCCAGGAAGAGAAGAAGUCAGGAAAAGACAUGACCCCUAGGGAGCUCUGACUGAGGAGGGAGGGUUGCUUCAGUCAGUGGCUCAGAGAUAGGGCUGGAAUUCUCGGGUGCCAA; result = 1.77

Series 3
Target: Interferon regulatory factor 3, full length, phosphomimetic (IRF3, Homo sapiens, UniProt Q14653, residues 1-427, S386D/S396D/S398D/S402D/T404D/S405D)
Sequence of UniProt Q14653 (whole entry, unmodified, looked up): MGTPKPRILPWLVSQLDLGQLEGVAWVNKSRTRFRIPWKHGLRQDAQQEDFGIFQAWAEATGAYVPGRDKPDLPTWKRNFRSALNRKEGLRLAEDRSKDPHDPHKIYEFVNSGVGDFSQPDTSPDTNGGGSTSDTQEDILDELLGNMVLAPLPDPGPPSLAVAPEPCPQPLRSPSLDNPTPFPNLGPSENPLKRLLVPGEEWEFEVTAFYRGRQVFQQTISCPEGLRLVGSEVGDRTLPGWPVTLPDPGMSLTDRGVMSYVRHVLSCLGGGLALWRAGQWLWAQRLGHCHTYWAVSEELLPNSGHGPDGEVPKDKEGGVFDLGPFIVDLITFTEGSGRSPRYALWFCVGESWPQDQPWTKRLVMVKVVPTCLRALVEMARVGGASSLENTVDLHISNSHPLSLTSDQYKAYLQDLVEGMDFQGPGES
Method: protein-binding microarray
Form: double-stranded DNA, one strand shown
Matrix: in vitro
Concentration: 2540 nM top
Notes: 60-bp whole probe
Added: salmon DNA 0.4 mg/ml
Baseline: random background probes
Direction: higher = stronger binding
Measurement: fitted relative affinity
All sequences stand within: GCCTAGCAC … GTCTTGATTCGCTTGACGCTGCTG
Sequence = TGGGAAATTCCTCTGAATAGGTGCTAG; result = 0.314 z-score
Sequence = GACGATCTCAGTTTCGATACGTGCTAG; result = 4.05 z-score
Sequence = TCAGCTCCCTTTCTCTCACTGTGCTAG; result = 2.76 z-score
Sequence = TTAGGTTTCGACTATAGGTTAGTGCTA; result = 2.23 z-score
Sequence = GAAGATGTGTATATGACAATGTGCTAG; result = -0.461 z-score
Sequence = GCCGATATCGGGACTGGAGACGTGCTA; result = 0.713 z-score
Sequence = GACGGACTGGGGCTCGGGACGTGCTAG; result = -1.12 z-score
Sequence = GACGATTTCGGATATCGAGACGTGCTA; result = 2.95 z-score
Sequence = GACGGTTCCCTTTTCCGGACGTGCTAG; result = 6.56 z-score
Sequence = TTAGGACTGGACACTGGGTAAGTGCTA; result = -0.542 z-score

Other studies, line by line
Molecule = PhoQ, residues 284 288 289 292 302 303 SLANKL; target = PhoP, residues 12 14 15 18 19 NQCAL (Escherichia coli, UniProt P23836); assay = Sort-seq, measured: YFP reporter; test system = E. coli; conditions = PhoQ-PhoP variant library, added: 10 µM Mg2+; how to read = baseline: high Mg2+ state, higher = stronger signaling; measurement = fold induction; result = 7.31

A few entries again (other studies, line by line):
Molecule = PhoQ, residues 284 288 289 292 302 303 SLANKL; target = PhoP, residues 12 14 15 18 19 NQCAL (Escherichia coli, UniProt P23836); assay = Sort-seq, measured: YFP reporter; test system = E. coli; conditions = PhoQ-PhoP variant library, added: 10 µM Mg2+; how to read = baseline: high Mg2+ state, higher = stronger signaling; measurement = fold induction; result = 7.31
